Published values pooled from the literature.
Each numbered part is a random draw from the data of one study; scales do not carry over between parts.

Block 1
Target: RING finger protein unkempt homolog, zinc fingers 1-6, GST-SBP tag (UNK, Homo sapiens, UniProt Q9C0B0, residues 30-357)
Technique: RNA Bind-n-Seq
Molecule type: RNA
Medium: in vitro
Tested at: not given
Notes: RNA with constant flanks, human and mouse sites, ends assumed
Reference: input RNA pool
Reading: higher = stronger binding
Quantity: bound/input enrichment
Residues (chain): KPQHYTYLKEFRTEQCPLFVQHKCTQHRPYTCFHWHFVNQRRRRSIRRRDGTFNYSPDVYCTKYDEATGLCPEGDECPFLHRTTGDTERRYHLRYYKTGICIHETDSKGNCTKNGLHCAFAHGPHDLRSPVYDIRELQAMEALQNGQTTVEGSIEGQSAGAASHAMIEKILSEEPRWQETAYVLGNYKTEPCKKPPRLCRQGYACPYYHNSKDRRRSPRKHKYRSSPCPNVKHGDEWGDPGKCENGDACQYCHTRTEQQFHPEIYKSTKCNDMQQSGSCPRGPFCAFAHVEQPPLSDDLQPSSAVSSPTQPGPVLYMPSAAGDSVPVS
Sequence = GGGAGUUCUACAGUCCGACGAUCGUUCUUUUAUUACUUUCAUCUAUACACUUCCAGUGUCGAAGGCUGGACAGAUCUGCUCAUUUUAGCACCUUGGCAAUUAAACAGAAUCCCCUUCUAGCAGAAGCCUAUUCGAAUUUGGGACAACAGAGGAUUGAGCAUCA; value = 3.09 ratio
Sequence = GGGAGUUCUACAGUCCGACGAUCUGUCUGGAGGCGAGGCGUCCCAUUACAGAGGAAGGAGCUCCCUAUAUAAGCCUGCCAAAGCUGGCUGCUCCGGCCACAGCCUGCCUACUGUCACGCGUCUCUCCCGCGCGCAGACACACACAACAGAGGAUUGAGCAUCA; value = 0.432 ratio
Sequence = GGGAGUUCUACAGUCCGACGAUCUUCCCACAUCCGUCCUCCCCCUUCCCAGGCCCGGAGUUCCAGACCUUUUGGUCUCCUUUCGUGGUCGUUCCUGGGUCCUUGCCCCCUUUCCCCACUUUGGAGUUCCAGAUUGCAAACCCACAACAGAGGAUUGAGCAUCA; value = 0.503 ratio
Sequence = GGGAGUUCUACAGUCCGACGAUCUGUAAUCAGUGUGGAAGAGCCUUCAGCCAGAAGCAAUACCUCAUUAAACAUCAGAACAUCCAUACUGGAAAGAAGCCCUUUAAAUGUAGUGAGUGUGGAAAAGCUUUUAGCCAGAAGGAACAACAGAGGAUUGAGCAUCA; value = 1.51 ratio
Sequence = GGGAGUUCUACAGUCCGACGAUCGGGCUGUACAGGUCACCCUCUCCCACGGUGCCCGCCGACCCUGGGGUGUCUGUCUCUCUGCGGGUAGGAGGGCGCCAUGGGCGCGCCGCCGCCCGCUCCCCGCAGCCGCCUUUGCGGAGCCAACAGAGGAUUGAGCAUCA; value = 0.0634 ratio
Sequence = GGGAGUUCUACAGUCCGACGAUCGUAAAGGAAGAUGAAGAAGAAGUUUCAGAUAAGGGCAGUGAUUCUGAAGAAGAAGAAACCAAUAGAGAUUCCCAAAGUGAGAAAGAUGAUGGUAGUGACAGAGACUCUGAUAGAGAGCAACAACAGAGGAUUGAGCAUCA; value = 0.992 ratio
Sequence = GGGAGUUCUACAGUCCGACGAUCUGGGUUACUCCUAUUAUUAUCAAGUAGCUGGAAUUGUGAAGGUCGGAGUAGUUAGAUCUUUAGCUUUUAUUCCUUAUUUUUUUGUAUUACUCUCCAUGUGUAUAAAUUAUUGAUCAUGUUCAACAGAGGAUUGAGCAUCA; value = 82.5 ratio
Sequence = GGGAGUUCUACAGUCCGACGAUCAUGAUGAAGCUCUCAGAAGAAAACCGACACCUGAGAGAUGAAGGCCUAAGGCUCAGAAAGGUAGCACAUUCGGAUAAACCUGGAUCCACCUCAGCCGUGUCCUUCAGAGAUAAUGUCACCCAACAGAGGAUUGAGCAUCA; value = 0.107 ratio

Block 2
Target: Histone acetyltransferase KAT6A, both winged helices, GST fusion (KAT6A, Homo sapiens, UniProt Q92794, residues 1-181)
Technique: protein binding microarray
Molecule type: double-stranded DNA, one strand shown
Medium: in vitro
Tested at: not given
Notes: 8-mer, flanks averaged, mean of 2 arrays, mostly near background
Reference: not given
Reading: higher = stronger binding
Quantity: E-score
Construct (chain): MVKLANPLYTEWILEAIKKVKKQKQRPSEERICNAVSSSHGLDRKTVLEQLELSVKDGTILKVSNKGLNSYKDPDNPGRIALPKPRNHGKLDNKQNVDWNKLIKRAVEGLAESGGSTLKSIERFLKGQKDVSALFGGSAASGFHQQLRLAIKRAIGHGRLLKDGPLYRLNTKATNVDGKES
Sequence = GCTTTTCC; value = 0.0835
Sequence = AAGCTTGC; value = -0.00762
Sequence = CTCTCTAA; value = -0.18
Sequence = AACTTGTA; value = 0.0319
Sequence = AGCCAGAC; value = -0.0784
Sequence = GGAGCACA; value = -0.13
Sequence = AGATTAGA; value = -0.156
Sequence = CCTCGCCC; value = -0.0204
Sequence = AGGTAAGG; value = -0.313
Sequence = ACCTACGC; value = 0.0746
Sequence = AGATTTAG; value = -0.243
Sequence = AATTATCG; value = 0.0271
Sequence = CCTAGTGC; value = 0.0262
Sequence = CAACTAGA; value = -0.0473
Sequence = AAGATCAT; value = 0.000955
Sequence = AAGACGTC; value = 0.0352
Sequence = AATCCAAG; value = -0.141
Sequence = CTCTAATC; value = -0.0487
Sequence = ACATTGGC; value = -0.17
Sequence = CTTGACGC; value = 0.0924
Sequence = AGCGACCG; value = 0.203
Sequence = AAATACCG; value = 0.0873
Sequence = CCGTCAAG; value = 0.239
Sequence = AAGACCCA; value = -0.161

Block 3
Target: Centromere-binding protein 1, full length, N-terminal tag (CBF1, Saccharomyces cerevisiae, UniProt P17106, residues 1-351)
Chain of UniProt P17106 (whole entry, looked up): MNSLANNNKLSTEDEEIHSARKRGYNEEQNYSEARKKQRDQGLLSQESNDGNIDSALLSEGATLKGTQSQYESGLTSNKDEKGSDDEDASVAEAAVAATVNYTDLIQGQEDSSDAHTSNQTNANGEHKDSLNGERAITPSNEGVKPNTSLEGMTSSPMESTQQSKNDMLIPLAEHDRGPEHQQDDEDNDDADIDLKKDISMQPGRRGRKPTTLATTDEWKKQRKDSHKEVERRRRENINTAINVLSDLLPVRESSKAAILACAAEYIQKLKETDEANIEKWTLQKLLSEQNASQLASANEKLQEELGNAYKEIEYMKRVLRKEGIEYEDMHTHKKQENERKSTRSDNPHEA
Technique: protein-binding microarray
Molecule type: double-stranded DNA, one strand shown
Medium: in vitro
Tested at: 0.8 µM
Notes: whole 60-bp probe, no competitor
Reading: higher = stronger binding
Quantity: fluorescence intensity
Sequence = CTATGGAACCATGTACACATGATCCTTTTACGGTTCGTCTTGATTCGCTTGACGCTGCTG; value = 1260 a.u.
Sequence = GAATTATTCTTTCTTGGTGACATGAAAATAATATAGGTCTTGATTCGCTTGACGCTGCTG; value = 612 a.u.
Sequence = CTATAACCACCCCCGGTCGTGACTTTTTAGATTTTCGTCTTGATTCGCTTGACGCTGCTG; value = 533 a.u.
Sequence = CTACTACAGCTTCCATGTGAGCTTAAAACGATCTTCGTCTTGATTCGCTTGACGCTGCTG; value = 666 a.u.
Sequence = CTAAAGCTAATAAATATCATGTGGAAACTTTTCTTCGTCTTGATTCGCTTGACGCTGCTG; value = 882 a.u.
Sequence = CCTAACTACTATAGTCAGCTGACATAGCTTCGTACAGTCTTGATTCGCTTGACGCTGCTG; value = 7090 a.u.
Sequence = CTACTCAAATAGAGTCGGGTGGAATGAAAAAAATTCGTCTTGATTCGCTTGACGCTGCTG; value = 546 a.u.
Sequence = GAACCCATATGTGAACATCAGGGAATCTAATCTTAGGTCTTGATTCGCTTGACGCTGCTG; value = 471 a.u.
Sequence = GAACACGAGAATAATCACGAGAATAGAATGCACTAGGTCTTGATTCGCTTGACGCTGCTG; value = 945 a.u.
Sequence = CTAACCCTGCTTTCACGCGTGCTCCTACCATTTTTCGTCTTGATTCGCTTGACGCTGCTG; value = 588 a.u.
Sequence = CTAATAATGCTATCACACGTGCATAATAAAATATTCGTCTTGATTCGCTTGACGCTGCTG; value = 5940 a.u.
Sequence = CTATTTCTGGAAAATTCCACGAGGTCCGTATATTTCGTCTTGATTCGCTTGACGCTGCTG; value = 618 a.u.
Sequence = GAAGTGGAAAAACAACACGTCTCCCCGCCCCTGTAGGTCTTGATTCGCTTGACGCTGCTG; value = 542 a.u.
Sequence = CTATTTTACCGTACGCACGTCATCGATGTATACTTCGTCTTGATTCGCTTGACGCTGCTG; value = 533 a.u.
Sequence = CTATTCCATATTTACCATGTGGACCCTTTCAAATTCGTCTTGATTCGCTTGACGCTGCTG; value = 652 a.u.
Sequence = CTAACGTGTTATTTCCAGCACGTGGGGCGGAAATTCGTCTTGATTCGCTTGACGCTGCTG; value = 10100 a.u.
Sequence = CTATATTGTTGGCAATTCGTGGTGGAGACTTAGTTCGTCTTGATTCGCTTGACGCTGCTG; value = 565 a.u.
Sequence = GAACGATACCAACATTATCTGATGTTTCAATGTTAGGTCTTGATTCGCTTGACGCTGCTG; value = 514 a.u.
Sequence = GAACCCTGAAGGAGTTTCATGATGTATGGGTCTTAGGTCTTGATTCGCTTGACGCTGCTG; value = 523 a.u.

Block 4
Target: TAR DNA-binding protein 43, full length, His tag (TARDBP, Homo sapiens, UniProt Q13148, residues 1-414)
Technique: RNA Bind-n-Seq
Molecule type: RNA
Medium: in vitro
Tested at: 20 nM
Notes: 6-mer, flanks averaged, single round
Added: 150 mM KCl
Reference: input library
Reading: higher = stronger binding
Quantity: 6-mer enrichment (R)
Sequence = GCCCAU; value = 0.688
Sequence = ACCACA; value = 0.656
Sequence = GUCUUC; value = 0.575
Sequence = GUUCUA; value = 0.579
Sequence = UUGGGA; value = 1.75
Sequence = UCCGGG; value = 1.79
Sequence = GGUGGA; value = 3.28
Sequence = GGAGCU; value = 1.45
Sequence = CGGAGC; value = 1.39
Sequence = ACCAUU; value = 0.622
Sequence = AAUAUC; value = 0.589
Sequence = GGGCUU; value = 1.72
Sequence = CAGUGC; value = 0.853
Sequence = AGGACU; value = 0.83
Sequence = GACGUG; value = 1.5
Sequence = UAGGCG; value = 1.49
Sequence = GACGCC; value = 0.887

Mixed results
Molecule type: peptide
Reading: direction not given
Sequence = LQVDDDSGDPLNLVKA; tested on = human cyclin A2-Cln2 fusion; assay = yeast growth, competitive growth deep sequencing; test system = Saccharomyces cerevisiae; setting = peptide tiling library; enrichment score = 0.597
Sequence = PPVIIKYIIINRF; tested on = human cyclin A2; assay = peptide binding, competitive growth sequencing; test system = Saccharomyces cerevisiae, cyclin A2-Cln2 fusion strain; setting = mutational scanning library 2; enrichment score = -0.0438
Sequence = GSALKKLFTSTGL; tested on = Saccharomyces cerevisiae; assay = peptide binding, yeast competitive growth sequencing; test system = cyclin E2-Cln2 fusion; setting = library 1; enrichment score = -1.14
Sequence = VKTKKRLNFDDK; assay = peptide binding; test system = yeast competitive growth; setting = added: B2-Cln2 chimera; enrichment score = -0.795

For quick reference, copied from above (block 1):
Sequence = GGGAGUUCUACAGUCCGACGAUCGUUCUUUUAUUACUUUCAUCUAUACACUUCCAGUGUCGAAGGCUGGACAGAUCUGCUCAUUUUAGCACCUUGGCAAUUAAACAGAAUCCCCUUCUAGCAGAAGCCUAUUCGAAUUUGGGACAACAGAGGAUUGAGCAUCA; value = 3.09 ratio
Sequence = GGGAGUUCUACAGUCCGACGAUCUGUCUGGAGGCGAGGCGUCCCAUUACAGAGGAAGGAGCUCCCUAUAUAAGCCUGCCAAAGCUGGCUGCUCCGGCCACAGCCUGCCUACUGUCACGCGUCUCUCCCGCGCGCAGACACACACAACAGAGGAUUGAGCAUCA; value = 0.432 ratio
Sequence = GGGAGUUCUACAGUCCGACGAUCUUCCCACAUCCGUCCUCCCCCUUCCCAGGCCCGGAGUUCCAGACCUUUUGGUCUCCUUUCGUGGUCGUUCCUGGGUCCUUGCCCCCUUUCCCCACUUUGGAGUUCCAGAUUGCAAACCCACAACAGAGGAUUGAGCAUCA; value = 0.503 ratio
Sequence = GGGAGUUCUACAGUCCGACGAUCUGUAAUCAGUGUGGAAGAGCCUUCAGCCAGAAGCAAUACCUCAUUAAACAUCAGAACAUCCAUACUGGAAAGAAGCCCUUUAAAUGUAGUGAGUGUGGAAAAGCUUUUAGCCAGAAGGAACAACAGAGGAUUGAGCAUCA; value = 1.51 ratio
Sequence = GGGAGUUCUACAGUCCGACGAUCGGGCUGUACAGGUCACCCUCUCCCACGGUGCCCGCCGACCCUGGGGUGUCUGUCUCUCUGCGGGUAGGAGGGCGCCAUGGGCGCGCCGCCGCCCGCUCCCCGCAGCCGCCUUUGCGGAGCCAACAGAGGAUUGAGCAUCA; value = 0.0634 ratio
Sequence = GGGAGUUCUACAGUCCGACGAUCGUAAAGGAAGAUGAAGAAGAAGUUUCAGAUAAGGGCAGUGAUUCUGAAGAAGAAGAAACCAAUAGAGAUUCCCAAAGUGAGAAAGAUGAUGGUAGUGACAGAGACUCUGAUAGAGAGCAACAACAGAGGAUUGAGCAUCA; value = 0.992 ratio
Sequence = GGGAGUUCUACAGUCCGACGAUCUGGGUUACUCCUAUUAUUAUCAAGUAGCUGGAAUUGUGAAGGUCGGAGUAGUUAGAUCUUUAGCUUUUAUUCCUUAUUUUUUUGUAUUACUCUCCAUGUGUAUAAAUUAUUGAUCAUGUUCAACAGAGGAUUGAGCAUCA; value = 82.5 ratio
Sequence = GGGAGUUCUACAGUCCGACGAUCAUGAUGAAGCUCUCAGAAGAAAACCGACACCUGAGAGAUGAAGGCCUAAGGCUCAGAAAGGUAGCACAUUCGGAUAAACCUGGAUCCACCUCAGCCGUGUCCUUCAGAGAUAAUGUCACCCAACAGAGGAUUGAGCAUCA; value = 0.107 ratio
